Measurements gathered from unrelated publications.
Lines come from different studies, so protocols differ. Values joined by “and” are separate records of one study, mostly repeats; a detail may differ. Numbers after ± are the reported error.
P4HB: Protein disulfide-isomerase (P4HB, Homo sapiens, UniProt P07237)
GBA1 R534H: Lysosomal acid glucosylceramidase (GBA1, Homo sapiens, UniProt P04062, R534H)
Gria1/Gria2: Glutamate receptor AMPA 1/2 (Gria1/Gria2, Rattus norvegicus, UniProt P19490+P19491)
HDAC6: Protein deacetylase HDAC6 (HDAC6, Homo sapiens, UniProt Q9UBN7)
HDAC9: Histone deacetylase 9 (HDAC9, Homo sapiens, UniProt Q9UKV0)

CN1CCCC1C(=O)NC(Cc1ccc(-n2cccn2)cc1)B(O)O (stereo not shown) — IC50 (20S proteasome, beta1 subunit (Plasmodium falciparum, UniProt Q8I0U7+Q8I6T3); β1 activity, inhibitor; added: Ac-nLPnLD-AMC): > 10 µM
CCOc1cc(/C=C/C(=O)c2ccc(Cl)cc2)ccc1O — IC50 (P4HB; enzyme activity, inhibitor): 88 µM
O=c1c(Oc2ccccc2)c(C(F)(F)F)oc2c(O)c(O)ccc12 — IC50 (Cullin-1, C-terminal domain with ROC1 (Homo sapiens, UniProt Q13616); inhibitor, FRET; added: ROC1-CUL1 CTD): 3.2 µM
N#Cc1ccc(-c2ccc(COCCCCCN3C[C@H](O)[C@@H](O)[C@H](O)[C@H]3CO)cc2)cc1 — IC50 (GBA1 R534H; inhibitor, 4MU-β-D-glucopyranoside; added: 4MU-β-D-glucopyranoside): 0.35 µM
C#Cc1cnc(Nc2ccnc(CO)c2)nc1Nc1ccccc1-c1nccs1 — IC50 (Interleukin-1 receptor-associated kinase 4 (IRAK4, Homo sapiens, UniProt Q9NWZ3); cell-based): 0.0823 ± 0.00262 µM
COC(=O)c1ccc(/C=C/C(=O)c2ccc(Cl)c(Cl)c2)cc1 — IC50 (P4HB; enzyme activity, inhibitor): 5.2 µM
COC(=O)Cc1cc2c(cc1C(=O)c1ccccc1)OCO2 — IC50 (Gria1/Gria2; ion current, antagonist, patch clamp): 6.03 µM
NC(=O)c1ccc(C(=O)NOCc2ccc(Sc3cccc(Cl)c3)c(C(F)(F)F)c2)cc1 — IC50 (Cytochrome P450 2E1 (CYP2E1, Homo sapiens, UniProt P05181); pooled human liver microsomes; 10 min): > 30 µM
CCCCc1nc2c([nH]1)[C@H](O)[C@@H](O)[C@H](O)[C@H]2O — IC50 (GBA1 R534H; 30 min preincubation, pH 5.2, added: 200 µM 2,4-dinitrophenyl-β-D-glucopyranoside): 0.192 µM
CCCCCCCCN1C[C@H](O)[C@@H](O)[C@H](O)[C@H]1CO — IC50 (GBA1 R534H; inhibitor, 4MU-β-D-glucopyranoside; added: 4MU-β-D-glucopyranoside): 4 µM
CC(C)(C)n1ncc2c(=O)n(Cc3cccc(F)c3)c(NCc3ccc(F)cn3)nc21 — IC50 (High affinity cAMP-specific and IBMX-insensitive 3',5'-cyclic phosphodiesterase 8A (PDE8A, Homo sapiens, UniProt O60658); enzyme activity, inhibitor): > 10 µM
COc1cc(/C=C/C(=O)c2ccc(S(=O)(=O)N3CCCC3)cc2)cc(OC)c1O — IC50 (P4HB; enzyme activity, inhibitor): 74 µM
OC[C@@H]1[C@@H](O)[C@H](O)[C@@H](O)CN1CCCCCOCc1ccc(-c2cncnc2)cc1 — IC50 (GBA1 R534H; inhibitor, 4MU-β-D-glucopyranoside; added: 4MU-β-D-glucopyranoside): 10 µM
OC[C@@H]1[C@@H](O)[C@H](O)[C@@H](O)[C@H]2O[C@@H]12 — IC50 (bglA (Thermotoga maritima, UniProt Q08638); enzyme activity, inhibitor; pH 6.8, with preincubation): > 100 µM
CCN(CC)CC(=O)Nc1cccc(-n2cc(-c3ccc4ccc(-c5cn(-c6cccc(NC(=O)CN(CC)CC)c6)nn5)cc4c3)nn2)c1 — IC50 (Fibroblast growth factor receptor 3 (FGFR3, Homo sapiens, UniProt P22607, K650E); kinase activity, inhibitor; construct 411-806 K650E): > 10 µM
Cc1cc(C(C)(C)C)ccc1OS(=O)(=O)Oc1cccc(/C=C/C(=O)NO)c1 — IC50 (HDAC6; enzyme activity, inhibitor, fluorescence): 1.96 µM
COC(=O)Cc1cc2c(cc1C(=O)c1cccc(I)c1)OCO2 — IC50 (Gria1/Gria2; ion current, patch clamp): 5.78 µM
O=C1CCC(N2C(=O)c3ccc(N4CC(C(=O)N5CC(CCN6CCC(CNC(=O)c7cccc(-c8noc(C(F)(F)F)n8)c7)(c7nc(-c8ccccc8)cs7)CC6)C5)C4)cc3C2=O)C(=O)N1 (stereo not shown) — IC50 (HDAC9; enzyme activity, inhibitor): 0.07 µM
CCOC(=O)C[C@@H](C#N)NC(=O)[C@@H]1CCCN1C(=O)[C@@H](NC(=O)c1ccc(N)c(Cl)c1)C(C)(C)C — IC50 (Cathepsin K (CTSK, Homo sapiens, UniProt P43235); enzyme activity, inhibitor): 6.73 µM
Cc1cc(=O)oc2c(F)c(O[C@@H]3C=C(CO)[C@@H](O)[C@H](O)[C@H]3O)c(F)cc12 — IC50 (Lysosomal acid glucosylceramidase (GBA1, Homo sapiens, UniProt P04062); added: resorufin β-glucoside at Km): 14.3 ± 1.7 µM
CC(C)C[C@H](NC(=O)c1ccccc1)C(=O)N[C@@H](CC(C)C)C(=O)N[C@H](/C=C/S(C)(=O)=O)Cc1ccc(CN)cc1 — IC50 (Proteasome subunit beta type-8 (PSMB8, Homo sapiens, UniProt P28062); enzyme activity, inhibitor; lysate): > 10 µM
CC(C)(C)NC(=O)C1CCN(Cc2cccc(/N=N/c3ccc(F)cc3F)c2)CC1 — IC50 (Atypical chemokine receptor 3 (ACKR3, Homo sapiens, UniProt P25106); ligand displacement, BRET): > 10 µM
COC(=O)Cc1cc2c(cc1C(=O)c1ccc(Cl)cc1Cl)OCO2 — IC50 (Gria1/Gria2; ion current, antagonist, patch clamp): 4.9 µM
Cc1cc(C)nc(NC(=S)N2CCN(Cc3ccc(C(F)(F)F)cc3)CC2)c1 — IC50 (Glycerol-3-phosphate dehydrogenase 1-like protein (GPD1L, Homo sapiens, UniProt Q8N335); enzyme activity; counterscreen): > 100 µM
Cc1cnc(Nc2ccc3c(c2)CCN(C(=O)/C=C/C(=O)C2CCCC2)C3)nc1-c1cnn(C(C)C)c1 — IC50 (Tyrosine-protein kinase JAK3 (JAK3, Homo sapiens, UniProt P52333); enzyme activity, inhibitor, ADP detection): > 0.03 µM
CNC(=O)c1ccc(CNC(=O)c2cnn3ccccc23)cc1 — IC50 (Epithelial discoidin domain-containing receptor 1 (DDR1, Homo sapiens, UniProt Q08345); ligand displacement): 49 µM
OC[C@@H]1[C@@H](O)[C@H](O)[C@@H](O)CN1CCCCCOCc1ccc(-c2ccc(Cl)cc2)cc1 — IC50 (GBA1 R534H; inhibitor, 4MU-β-D-glucopyranoside; added: 4MU-β-D-glucopyranoside): 0.5 µM
O=C(CCc1ccc(CNC(C(=O)OC2CCCC2)C2CCCCC2)cn1)NO (stereo not shown) — IC50 (Polyamine deacetylase HDAC10 (HDAC10, Homo sapiens, UniProt Q969S8); enzyme activity, inhibitor): 1 µM
Cc1ncc(C(=O)N[C@@H](CCC(=O)O)C(=O)N[C@@H](Cc2ccc3ccccc3c2)C(=O)N[C@@H](CC(C)C)C(=O)NC2CC2c2ccccc2)cn1 (stereo partly shown) — IC50 (Adenomatous polyposis coli protein (APC, Homo sapiens, UniProt P25054); ligand displacement, FP): 62.8 µM
Cc1cc(NC2CCN(C)CC2)ccc1-c1cc2c(N3CCC[C@H](C(=O)NCc4ccc(OC(F)(F)F)cc4)C3)ncnc2[nH]1 — IC50 (Rho-associated protein kinase 1 (ROCK1, Homo sapiens, UniProt Q13464); enzyme activity, inhibitor, mobility shift): > 8 µM
Cc1nn(-c2cccc(N)c2)c(=O)c2cnc(Nc3ccc(N4CCNCC4)cc3)nc12 — IC50 (Sphingosine kinase 2 (SPHK2, Homo sapiens, UniProt Q9NRA0); kinase activity, inhibitor, SelectScreen kinase profiling): > 10 µM
CC(C)c1ccccc1[C@@H]1CCCN1C1CC2(CCN(c3ccc(C(=O)NS(=O)(=O)c4ccc(NC[C@H]5CC[C@](C)(O)CC5)c([N+](=O)[O-])c4)c(Oc4cnc5[nH]ccc5c4)c3)CC2)C1 — IC50 (Bcl-2-related protein A1 (Homo sapiens, UniProt Q16548); binding, inhibitor, TR-FRET competition; added: BAX-derived peptide): > 10 µM
COc1ccc(/C=C/C(=O)c2ccc(Br)cc2)cc1OC — IC50 (P4HB; enzyme activity, inhibitor): > 100 µM
CC(C)=CCC/C(C)=C/CC/C(C)=C/COCCCCCN1C[C@H](O)[C@@H](O)[C@H](O)[C@@H]1CO — IC50 (GBA1 R534H; inhibitor, 4MU-β-D-glucopyranoside; added: 4MU-β-D-glucopyranoside): 50 µM
O=C(O)Cc1cc2c(cc1C(=O)c1ccccc1Cl)OCO2 — IC50 (Gria1/Gria2; ion current, patch clamp): 4.35 µM
C[C@H](OCCCCCN1C[C@H](O)[C@@H](O)[C@H](O)[C@H]1CO)c1ccc(-c2ccccc2)cc1 — IC50 (GBA1 R534H; inhibitor, 4MU-β-D-glucopyranoside; added: 4MU-β-D-glucopyranoside): 400 µM
C/C(=N\Nc1nc(-c2ccccc2)cs1)c1ccc2c(c1)sc1nc(=O)c(C#N)cn12 — IC50 (DNA gyrase (gyrA/gyrB, Escherichia coli, UniProt P0AES4+P0AES6); enzyme activity, inhibitor): 1.56 µM
O=C(NO)c1cncc(OS(=O)(=O)Oc2ccccc2-c2ccccc2)c1 — IC50 (HDAC6; enzyme activity, inhibitor, fluorescence): 0.249 µM
C[C@@H](O)[C@@H]1NC(=O)[C@H](CCCCN)NC(=O)[C@@H](Cc2ccc(NC(N)=O)cc2)NC(=O)[C@H](Cc2ccc(O)cc2)NC(=O)[C@H](NC(=O)[C@H](Cc2ccc(Cl)cc2)NC(=O)CN2CCN(CC(=O)O)CCN(CC(=O)O)CCN(CC(=O)O)CC2)CSSC[C@@H](C(=O)N[C@@H](Cc2ccc3ccccc3c2)C(N)=O)NC1=O — IC50 (Somatostatin receptor type 1 (SSTR1, Homo sapiens, UniProt P30872); ligand displacement, radioligand): > 1 µM
COC(=O)Cc1cc2c(cc1C(=O)c1ccccc1Br)OCO2 — IC50 (Gria1/Gria2; ion current, antagonist, patch clamp): 5.5 µM
CCCCCCN1C[C@H](O)[C@@H](O)[C@H](O)[C@H]1CO — IC50 (GBA1 R534H; inhibitor, 4MU-β-D-glucopyranoside; added: 4MU-β-D-glucopyranoside): 80 µM
CCCCCCN(O)C(=O)CCCCC[C@@H]1NC(=O)[C@H]([C@@H](C)CC)NC(=O)[C@H](Cc2ccccc2C(F)(F)F)NC(=O)CCSCc2cccc(n2)CSCCCNC1=O — IC50 (HDAC9; enzyme activity, inhibitor, fluorogenic): > 30 µM
c1ccc(CSc2nc3ccccc3cc2CNCCC2CCN(C3CCCC3)CC2)cc1 — IC50 (atpB/atpE (Pseudomonas aeruginosa, UniProt Q9HT14+Q9HT15); ATP synthesis, inhibitor; Pseudomonas aeruginosa inverted membrane vesicles; added: NADH): 0.979 µM
C=C[C@H]1[C@H](O[C@@H]2O[C@H](COC(=O)/C=C/c3ccc(O)cc3)[C@@H](O)[C@H](O)[C@H]2O)OC=C(C(=O)O)[C@H]1CC(=O)O — IC50 (Angiotensin-converting enzyme (ACE, Oryctolagus cuniculus, UniProt P12822); enzyme activity): 119 ± 2.34 µM
O=C(/C=C/c1cccc(Br)c1)c1ccc(O)c(CCCl)c1 — IC50 (P4HB; enzyme activity, inhibitor): 32 µM
CC[C@H](C)C(=O)O[C@H]1C[C@@H](C)C=C2C=C[C@H](C)[C@H](CC[C@@H]3CC=CC(=O)O3)[C@H]21 — IC50 (Cystic fibrosis transmembrane conductance regulator (CFTR, Homo sapiens, UniProt P13569); apical chloride current, inhibitor; T84, basolaterally permeabilized; added: forskolin 20 µM): ~0.85 µM and 0.85 µM
N#Cc1c(-c2ccco2)cc(-c2cccs2)[nH]c1=O — IC50 (Protein FosB, ΔFosB isoform (Fosb, Mus musculus, UniProt P13346); DNA binding, fluorescence polarization; added: 1 mM TCEP): 13.4 µM
COc1cc(OC)c(OC)cc1/C=C/C(=O)c1ccc2c(c1)CCO2 — IC50 (P4HB; enzyme activity, inhibitor): > 100 µM
CC(C)(C)CCOCCCCCN1C[C@H](O)[C@@H](O)[C@H](O)[C@H]1CO — IC50 (GBA1 R534H; inhibitor, 4MU-β-D-glucopyranoside; added: 4MU-β-D-glucopyranoside): 4 µM
